Results of several laboratories.
Each numbered part is a random draw from the data of one study; scales do not carry over between parts. “And” joins repeats or separate records; there may be more than shown.
UniProt Q06418, sequence (whole entry, looked up): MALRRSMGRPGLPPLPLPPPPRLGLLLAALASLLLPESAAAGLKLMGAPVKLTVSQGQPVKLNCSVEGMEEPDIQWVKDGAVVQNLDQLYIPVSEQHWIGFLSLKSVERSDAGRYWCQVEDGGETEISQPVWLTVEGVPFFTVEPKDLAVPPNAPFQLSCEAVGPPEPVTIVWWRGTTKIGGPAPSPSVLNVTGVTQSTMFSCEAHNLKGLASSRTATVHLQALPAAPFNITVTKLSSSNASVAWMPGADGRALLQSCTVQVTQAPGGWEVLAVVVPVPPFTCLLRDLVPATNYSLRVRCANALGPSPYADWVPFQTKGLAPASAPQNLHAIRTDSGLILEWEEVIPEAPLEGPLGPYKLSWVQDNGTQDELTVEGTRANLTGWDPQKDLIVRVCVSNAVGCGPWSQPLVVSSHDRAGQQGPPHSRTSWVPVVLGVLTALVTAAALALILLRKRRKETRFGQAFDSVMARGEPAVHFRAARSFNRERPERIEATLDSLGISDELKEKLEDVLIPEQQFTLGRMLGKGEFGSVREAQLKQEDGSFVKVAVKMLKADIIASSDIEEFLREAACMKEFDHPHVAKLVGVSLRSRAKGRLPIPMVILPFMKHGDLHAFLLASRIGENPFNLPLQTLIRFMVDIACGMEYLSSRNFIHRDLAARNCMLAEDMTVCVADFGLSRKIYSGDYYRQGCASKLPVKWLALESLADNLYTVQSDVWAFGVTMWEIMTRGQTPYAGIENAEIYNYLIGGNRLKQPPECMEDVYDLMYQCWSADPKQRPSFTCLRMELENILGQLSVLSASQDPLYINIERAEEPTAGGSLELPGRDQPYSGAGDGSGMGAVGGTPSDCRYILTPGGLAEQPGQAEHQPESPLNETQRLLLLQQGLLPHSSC
UniProt P17948, sequence (whole entry, looked up): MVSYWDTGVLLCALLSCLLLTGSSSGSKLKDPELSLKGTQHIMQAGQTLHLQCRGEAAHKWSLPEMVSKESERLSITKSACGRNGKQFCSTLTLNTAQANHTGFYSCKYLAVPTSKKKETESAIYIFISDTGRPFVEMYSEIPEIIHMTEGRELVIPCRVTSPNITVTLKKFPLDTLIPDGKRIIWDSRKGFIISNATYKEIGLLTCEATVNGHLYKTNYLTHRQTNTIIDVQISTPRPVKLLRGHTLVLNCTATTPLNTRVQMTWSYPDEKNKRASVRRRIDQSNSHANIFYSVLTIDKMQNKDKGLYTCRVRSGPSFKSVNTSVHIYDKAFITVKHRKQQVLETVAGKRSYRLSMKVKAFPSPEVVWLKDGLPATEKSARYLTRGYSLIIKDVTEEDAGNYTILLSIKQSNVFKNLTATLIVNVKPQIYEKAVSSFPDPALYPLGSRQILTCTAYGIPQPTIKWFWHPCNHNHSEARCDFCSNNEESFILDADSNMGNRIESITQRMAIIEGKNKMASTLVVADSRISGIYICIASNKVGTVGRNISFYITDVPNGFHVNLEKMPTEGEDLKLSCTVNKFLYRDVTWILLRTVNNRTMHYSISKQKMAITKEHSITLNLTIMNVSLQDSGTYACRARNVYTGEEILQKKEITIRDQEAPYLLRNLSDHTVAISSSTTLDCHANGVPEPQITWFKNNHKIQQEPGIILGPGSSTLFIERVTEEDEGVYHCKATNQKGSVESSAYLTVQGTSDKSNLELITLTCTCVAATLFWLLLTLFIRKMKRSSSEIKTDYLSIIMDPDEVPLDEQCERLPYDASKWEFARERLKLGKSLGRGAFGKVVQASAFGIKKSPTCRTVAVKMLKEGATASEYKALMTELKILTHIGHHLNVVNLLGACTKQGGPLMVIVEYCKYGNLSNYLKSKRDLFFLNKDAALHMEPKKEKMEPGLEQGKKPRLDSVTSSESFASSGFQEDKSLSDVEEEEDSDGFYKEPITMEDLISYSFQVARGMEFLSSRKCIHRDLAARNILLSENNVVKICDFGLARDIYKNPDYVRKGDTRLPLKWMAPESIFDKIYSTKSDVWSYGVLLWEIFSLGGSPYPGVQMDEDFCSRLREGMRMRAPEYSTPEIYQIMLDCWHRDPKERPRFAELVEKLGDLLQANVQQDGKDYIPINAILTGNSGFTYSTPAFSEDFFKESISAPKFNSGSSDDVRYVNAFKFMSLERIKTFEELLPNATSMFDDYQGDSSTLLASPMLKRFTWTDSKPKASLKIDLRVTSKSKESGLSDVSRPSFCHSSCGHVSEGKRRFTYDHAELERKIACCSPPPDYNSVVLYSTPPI
UniProt Q9NYL2, sequence (whole entry, looked up): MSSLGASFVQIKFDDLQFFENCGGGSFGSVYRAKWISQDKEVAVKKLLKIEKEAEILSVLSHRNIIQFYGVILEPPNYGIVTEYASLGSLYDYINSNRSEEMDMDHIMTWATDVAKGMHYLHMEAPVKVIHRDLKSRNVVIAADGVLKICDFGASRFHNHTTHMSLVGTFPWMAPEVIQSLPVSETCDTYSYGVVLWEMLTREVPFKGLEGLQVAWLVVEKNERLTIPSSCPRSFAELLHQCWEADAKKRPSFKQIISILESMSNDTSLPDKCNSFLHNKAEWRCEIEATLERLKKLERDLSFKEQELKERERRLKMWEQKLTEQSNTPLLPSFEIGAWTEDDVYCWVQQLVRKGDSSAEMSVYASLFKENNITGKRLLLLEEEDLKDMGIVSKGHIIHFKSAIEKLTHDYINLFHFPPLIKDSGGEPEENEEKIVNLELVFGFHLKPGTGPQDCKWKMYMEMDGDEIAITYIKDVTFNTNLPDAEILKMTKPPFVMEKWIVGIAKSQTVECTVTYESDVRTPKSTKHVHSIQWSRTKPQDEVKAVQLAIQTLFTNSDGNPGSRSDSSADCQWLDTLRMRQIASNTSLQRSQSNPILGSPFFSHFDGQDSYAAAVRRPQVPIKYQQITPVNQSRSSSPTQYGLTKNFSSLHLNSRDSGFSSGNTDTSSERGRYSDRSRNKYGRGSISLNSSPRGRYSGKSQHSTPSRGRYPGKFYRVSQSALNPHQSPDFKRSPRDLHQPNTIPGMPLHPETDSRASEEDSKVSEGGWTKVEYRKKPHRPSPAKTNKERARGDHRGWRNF
UniProt O15146, sequence (whole entry, looked up): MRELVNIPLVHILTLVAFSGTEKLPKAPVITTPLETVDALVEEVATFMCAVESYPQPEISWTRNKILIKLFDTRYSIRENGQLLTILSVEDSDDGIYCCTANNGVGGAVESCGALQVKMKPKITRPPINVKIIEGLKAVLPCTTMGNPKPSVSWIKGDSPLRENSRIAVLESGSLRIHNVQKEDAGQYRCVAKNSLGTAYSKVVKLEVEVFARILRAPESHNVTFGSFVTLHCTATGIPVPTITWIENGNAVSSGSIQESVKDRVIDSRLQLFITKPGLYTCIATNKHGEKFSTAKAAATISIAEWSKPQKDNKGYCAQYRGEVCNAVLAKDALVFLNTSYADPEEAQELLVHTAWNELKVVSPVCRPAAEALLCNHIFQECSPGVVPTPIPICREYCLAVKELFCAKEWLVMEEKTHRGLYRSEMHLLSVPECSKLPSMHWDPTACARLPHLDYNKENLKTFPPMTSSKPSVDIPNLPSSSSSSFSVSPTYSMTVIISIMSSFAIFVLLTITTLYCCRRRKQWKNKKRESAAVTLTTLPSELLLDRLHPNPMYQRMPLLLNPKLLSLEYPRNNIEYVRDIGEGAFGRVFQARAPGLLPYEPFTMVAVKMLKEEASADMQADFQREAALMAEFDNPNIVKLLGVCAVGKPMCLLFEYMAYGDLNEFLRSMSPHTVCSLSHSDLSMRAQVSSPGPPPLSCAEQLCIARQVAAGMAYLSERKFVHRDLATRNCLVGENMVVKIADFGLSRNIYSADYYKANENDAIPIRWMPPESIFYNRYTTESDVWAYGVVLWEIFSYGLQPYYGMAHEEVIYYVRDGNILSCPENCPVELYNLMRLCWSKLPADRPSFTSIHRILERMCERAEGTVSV
UniProt Q00535, sequence (whole entry, looked up): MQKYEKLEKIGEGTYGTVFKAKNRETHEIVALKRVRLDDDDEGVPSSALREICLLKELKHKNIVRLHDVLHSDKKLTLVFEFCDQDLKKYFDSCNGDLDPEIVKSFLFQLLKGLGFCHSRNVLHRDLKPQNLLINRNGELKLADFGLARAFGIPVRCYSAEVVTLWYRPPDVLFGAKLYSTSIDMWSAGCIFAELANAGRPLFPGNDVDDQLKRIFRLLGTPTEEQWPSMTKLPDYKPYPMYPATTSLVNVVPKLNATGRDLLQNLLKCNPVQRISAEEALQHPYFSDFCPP
UniProt Q13153, sequence (whole entry, looked up): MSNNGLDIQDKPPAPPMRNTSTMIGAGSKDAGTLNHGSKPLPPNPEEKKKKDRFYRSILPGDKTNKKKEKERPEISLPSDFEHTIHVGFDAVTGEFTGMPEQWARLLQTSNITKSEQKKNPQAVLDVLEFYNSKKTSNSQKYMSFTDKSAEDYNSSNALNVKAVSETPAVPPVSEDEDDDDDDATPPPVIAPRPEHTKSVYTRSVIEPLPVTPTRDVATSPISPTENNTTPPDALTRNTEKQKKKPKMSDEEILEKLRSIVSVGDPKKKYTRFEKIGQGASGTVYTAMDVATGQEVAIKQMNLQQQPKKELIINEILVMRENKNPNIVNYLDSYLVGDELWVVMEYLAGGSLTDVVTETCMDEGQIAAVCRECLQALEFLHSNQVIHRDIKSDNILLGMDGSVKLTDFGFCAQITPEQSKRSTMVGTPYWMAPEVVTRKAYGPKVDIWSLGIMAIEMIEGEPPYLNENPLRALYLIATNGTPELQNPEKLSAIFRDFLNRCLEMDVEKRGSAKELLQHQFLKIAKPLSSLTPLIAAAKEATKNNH

Set 1
Cell line: HEK-293T/ACE2
Concentration: 10 µM
Time: 16 h
Relative to: vehicle
Measurement: viability
CN(C)CCC(c1ccc(Cl)cc1)c1ccccn1 (centres unmarked): 103%
CC1(C)O[C@@H]2C[C@H]3[C@@H]4CCC5=CC(=O)C=C[C@]5(C)[C@@]4(F)[C@@H](O)C[C@]3(C)[C@]2(C(=O)CO)O1: 101%
O=C(O)c1ccc(-n2nc(-c3ccccc3O)nc2-c2ccccc2O)cc1: 89.9%
CCCCC1C(=O)N(c2ccccc2)N(c2ccccc2)C1=O: 102%
O=C(O)c1cc(-c2ccc(F)cc2F)ccc1O: 101%

Set 2
SMILES: CC(C)S(=O)(=O)c1ccc2nccc(Nc3ccc4sc(C5CCCC5)nc4c3)c2c1.Cl
Technique: CCK-8
Measurement: survival
L929 RIPK3-/- reexpressing RIPK3 K51A/R69H; 1.563 µM: 97.7% and 95.2% and 81.4% and 99% and 94.9%
L929 RIPK3-/- reexpressing RIPK3 K51A; 1.563 µM: 99% and 94.2% and 97.9% and 98.6% and 96.8%
L929 RIPK3-/- reexpressing RIPK3 K51A; 3.125 µM, together with: zVAD: 95.1% and 96.5% and 101%
L929 RIPK3-/- reexpressing RIPK3 K51A; 12.5 µM, together with: zVAD: 105% and 101% and 95.9% and 110% and 94%
L929 RIPK3-/- reexpressing RIPK3 K51A; 1.563 µM, together with: zVAD: 99.8% and 94.4% and 103% and 96.2% and 101%

Set 3
Compound: COc1ccc2c(c[n+](C)c3c4cc5c(cc4ccc23)OCO5)c1OC
Observed: enzyme activity
Mode: inhibitor
Concentration: 0.5 µM
Relative to: control
Measurement: remaining activity
TYRO3 (Homo sapiens, UniProt Q06418): 95.7%
MUSK (Homo sapiens, UniProt O15146): 98.2%
MAP3K20 (Homo sapiens, UniProt Q9NYL2): 94.7%
Cyclin-dependent kinase 5, with p35 (CDK5, Homo sapiens, UniProt Q00535): 95.7%
PAK1 (Homo sapiens, UniProt Q13153): 98.7%
FLT1 (Homo sapiens, UniProt P17948): 88.8%

Set 4
Cell line: HEK-293T-ACE2-TMPRSS2
Technique: cell count
Concentration: concentration not given
Measurement: viability
O=C(Nc1nc2c(s1)CN(Cc1ccccc1)CC2)c1ccc2ccccc2c1: 69%
Cc1cc(C(=O)N2CCCC(C(=O)Nc3cccc(-c4cc5ccccc5[nH]4)c3)C2)nn1C (centres unmarked): 76%
COc1ccccc1C(=O)N1C2CCC1c1cnc(-c3ccc(F)cc3)nc1C2 (centres unmarked): 71%
CC(NCc1ccccc1)C(=O)NCC(=O)N1CCCc2ccccc21 (centres unmarked): 68%
Cn1nccc1C(=O)N1CCc2cc(-c3csc(C4CC4)n3)ccc21: 76%
COc1ccc(-n2c3c(cc(C(=O)NCCc4ccccc4)c2=O)C(=O)CC(C)(C)C3)cc1: 71%
Cc1ccc(NS(=O)(=O)c2ccc3[nH]c(-c4ccccc4)nc3c2)c(Br)c1: 77%

Repeated from above (set 4):
COc1ccc(-n2c3c(cc(C(=O)NCCc4ccccc4)c2=O)C(=O)CC(C)(C)C3)cc1: 71%
Cc1cc(C(=O)N2CCCC(C(=O)Nc3cccc(-c4cc5ccccc5[nH]4)c3)C2)nn1C (centres unmarked): 76%
CC(NCc1ccccc1)C(=O)NCC(=O)N1CCCc2ccccc21 (centres unmarked): 68%
